# Experimental data pooled from the literature.
# Numbered parts are unrelated; each lists some results of a single study. Positions count from the first letter of the parent shown.

# Set 1
# Target: RING finger protein unkempt homolog, zinc fingers 1-6, GST-SBP tag (UNK, Homo sapiens, UniProt Q9C0B0, residues 30-357)
# Method: RNA Bind-n-Seq
# Form: RNA
# Medium: in vitro
# Concentration: not given
# Notes: RNA with constant flanks, human and mouse sites, ends assumed
# Reference: input RNA pool
# Direction: higher = stronger binding
# Constant ends, left off below: GGGAGUUCUACAGUCCGACGAUC … CAACAGAGGAUUGAGCAUCA
# Target sequence (chain): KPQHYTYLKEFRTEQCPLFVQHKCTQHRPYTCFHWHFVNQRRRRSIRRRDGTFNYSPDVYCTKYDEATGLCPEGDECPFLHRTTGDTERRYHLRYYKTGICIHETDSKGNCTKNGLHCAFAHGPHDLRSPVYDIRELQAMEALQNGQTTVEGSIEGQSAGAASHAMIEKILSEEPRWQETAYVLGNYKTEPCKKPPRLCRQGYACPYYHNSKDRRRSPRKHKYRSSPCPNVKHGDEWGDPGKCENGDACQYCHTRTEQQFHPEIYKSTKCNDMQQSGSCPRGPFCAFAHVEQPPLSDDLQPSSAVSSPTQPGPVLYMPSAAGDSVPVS
Strand,bound/input enrichment [ratio]
GAACCUGAGCCAGCGGAAGAAUACACAGAGCAAAGUGAGGUUGAAUCAACAGAGUAUGUCAAUAGGCAGUUCAUGGCAGAAACACAGUUCAGCAGUGGUGAGAAGGAGCAAGUGGAUGAG,0.442
CAAAACACAAAAGCUCUUAUUUUGAAAAGUGAACAUAUAAGGCUAGAAAAAGAAAUUUCUAAGUUAAAGCAGCAAAAUGAACAGCUAAUAAAACAAAAGAAUGAAUUGUUAAGCAAUAAU,0.47
GCUUCCAAGAAGGUUUUGGAUACUAGAAGUAUUAAUCUAUGGCUUUUCUCCCAGUAAAACCAUAGGCCUGAAGUUCACAUUGGGUCUUUAAAUCUUUUAGAUAUAUACUGGUCAUUUCAG,1.23
CUCUUCCUCCCCACCCUGAAAAAAAUGAGUUCCUAUUUUUUCUGGGAGAGGGGGGGAUUGAUUAGAAAAAAAUGUAGUGUGUUCCAUUUAAAAUUUUGGCAUAUGGCAUUUUCUAACUUA,0.243
UCAUUUAUUAGAUACAAUAGCCAAAGAAUAAAGUAAAAACUCCUUUUUACCUUGCUGCCCAAUAGGAAUCAGAUGACUUAAAUACUAGGCCUUACUAGGGUCUCUUGGCUUUGGAGUUUU,15.9
UGUAUUGACCAAAGUUUUGCAGCUCUACUAUAUUCUGUGCUCAGGACUAAAAUGCUGUUAAUUUUUUUUUUUUUUUCCAGUGCUGUGCAUAUAUUCUGUGAUGGGAAACAUUGUUGAUGU,0.376
CAUGACAGCAACACCGAUAUGUUUCAGAUUGGCCGGUCGACUGAAAGCCCCAUUGAUUUUGUAGUAACUGACACGGUUCCUGGAAGUCAAAGUAAUUCUGAUACACAGUCAGUACAAAGC,0.0694
GCUGGAUGAUACCAUAAUGUAUCAAGGAGCGUCCAUGGAUACAAGAUAAGAUGUGUACCUUAGUAGAAUACAGAGCUUUGGUAAUUACAUGAAUAAAAUUAAGAAAAUAGCCAUAUACAA,2.63

# Set 2
# Target: CCNB1, cyclin fold, Cln2 fusion (human)
# Method: yeast growth competition, sequencing
# Medium: yeast
# Notes: weak parent motif
# Reference: not given
# Direction: higher = stronger binding
# Parent: RRM2 docking peptide (human); SKTARRIFQEPTE
Variant,normalised enrichment score
SKTARRIFQEATE [P11A],-0.00913
SKTARRIAQEPTE [F8A],0.0942
SKTARAIFQEPTE [R6A],0.18
SKTARRIFQAPTE [E10A],0.0827
SKTAARIFQEPTE [R5A],0.342
SKAARRIFQEPTE [T3A],-0.251

# Set 3
# Target: RNA binding protein fox-1 homolog 2, RRM domain, GST-SBP tag (RBFOX2, Homo sapiens, UniProt O43251-10, residues 100-194)
# Method: RNA Bind-n-Seq
# Form: RNA
# Medium: in vitro
# Concentration: 365 nM
# Notes: natural RNA segment, single round, ends assumed
# Reference: no-protein control
# Direction: higher = stronger binding
# Constant ends, left off below: GGGAGUUCUACAGUCCGACGAUC … UGGAAUUCUCGGGUGCCAA
# Construct (chain): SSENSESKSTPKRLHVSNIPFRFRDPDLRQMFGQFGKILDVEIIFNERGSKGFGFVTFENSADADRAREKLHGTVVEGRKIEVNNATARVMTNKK
Strand,RBNS enrichment (R)
AAUGCAUGUUUUGAGAUGUUUGACCACUUCAGCAACUACGUCAGUGGCUUCAGGAUCGGGUGUACUGUUCUCAUAACCUUGGGAGGAGAAAGAGAAAGAGAGCGGCUGCU,22.7
CGUCCUUCAGCGAGCUCUACCUGCCGUCCACUAGAGCCAGGUACCCAUACGAGGAGCCCACCGUCCCUGUCCCUCGAGGUCACGUCCCACCGCUGCACUAAGGACUCACG,0.462
AAAAGUGAAAAUACCAUGACACUGAAAAGAUGAUGCUAUCAGAUGCUGUUUAGAAAGCAUUUAUCUUGCAUUUCUUUAUUCUUUCUAAUUAUCUAAAAUUCAAUAAAAUU,0.798
GCAGGUUCUCUGCCCUCCCUAGGGGUUGGGGAAGGACCCACCCCGGUCAGCACAGUGCCUUUUCCUCUCCUGCUCUGAGCCAGGGUGGGGCAUUCCCUCUAGAUUCAGGU,0.454
UCCAUAACGUAGCUAAGGCAUCUAAGAGUUUGCUGUUGAUAAUCUUGCUGACCAAAAACUACUGGAGAGUAACACAGGUUAUAUGCCAUCACAAAUACAAUGCUCAUGAA,1.47
UAGGGCCACAUCAACCUGAGUUGGUACUGGGUGGCCAGGAUGGGGACUUUCCCAUUCUCAGCUGAGGUUGGAAGAAACCACUCUGGGUGUCCUUUCUGGGACCUGUCUGC,0.275
GUUGAACUAAGUUAUGGAUUUGUGGUCUUUCAAAUACAUGACGCCUUUAGUAUGCCACACUGAAAUGAAUAAGAAGUCUUCUGAAACUGGGAACUUCAUAACAUUGAAGG,0.361
ACUUGGGCUGUCAUCUUUGAGCUGUUUACCAAAAUACAGACCAUUAUUGAAGAAAAACAAAUUAUCUAUUUUGUUUUCCCCCAUCUAACAUGAUAGUGCCCCCAACCAGG,0.35

# Set 4
# Target: Interferon regulatory factor 5, full length, phosphomimetic (IRF5, Homo sapiens, UniProt Q13568-2, residues 1-514, K96S/S451D/S453D/S456D/S462D)
# Method: protein-binding microarray
# Form: double-stranded DNA, one strand shown
# Medium: in vitro
# Concentration: 250 nM
# Notes: 60-bp whole probe
# Added: salmon DNA 0.4 mg/ml
# Reference: random background probes
# Direction: higher = stronger binding
# Constant ends, left off below: GCCTAGCAC … GTCTTGATTCGCTTGACGCTGCTG
Strand,log fluorescence
GACGGGCTCGGACTGGGGACGTGCTAG,-0.662 z-score
TTAGGTTTCCTACTCCTTTAGTGCTAG,0.403 z-score
TTAGGACTGAGTCTCGATTAGTGCTAG,0.279 z-score
ACTCCTATCCAAGTTCCCCTGGTGCTA,-0.00506 z-score
GACGATATCGGTTATCGAGACGTGCTA,5.46 z-score
GACGATATCAGTATCGAAACGTGCTAG,5.97 z-score
GACGGACTGGCACTGGGGACGTGCTAG,-0.742 z-score
GTAGGTTTCGACTATCGGTTAGTGCTA,9.37 z-score
TTATGTATCGACTTTCGGTTAGTGCTA,10.2 z-score
TTAGGTCTAGGTATCGGTTAGTGCTAG,4.1 z-score
GACAGTTTCCTTTTCCTGACGTGCTAG,1.79 z-score
TTAGAACTGAAACTGGATTAGTGCTAG,1.79 z-score
TCAGCTCTTATATACCTGACTGTGCTA,-0.102 z-score
TTCTCTTTCACTGCTGCCCTGTGCTAG,4.19 z-score
ATCTTCATGAAATTTTAATAAGTGCTA,0.796 z-score
GACGAACTGAGTCCCGAGACGTGCTAG,-0.398 z-score
GACGAACGGGGGTATCGAGACGTGCTA,1.25 z-score
TTAGGTTTCCTTTCACTTTAGTGCTAG,5.61 z-score
TCACGTATCTTCATTGTACTGTGCTAG,0.511 z-score

# Single results of other studies
Substance,target,test,test system,setting,scale,endpoint,result
"PhoQ, residues 284 288 289 292 302 303 SCKMEA","PhoP, residues 12 14 15 18 19 LQHIR (Escherichia coli, UniProt P23836)","Sort-seq, refers to: YFP reporter",E. coli,"PhoQ-PhoP variant library, added: 10 µM Mg2+","reference: high Mg2+ state, higher = stronger signaling",fold induction,14.4

# Repeated from above (set 2):
Variant,normalised enrichment score
SKTARRIAQEPTE [F8A],0.0942
SKTARRIFQAPTE [E10A],0.0827
SKTARAIFQEPTE [R6A],0.18
SKTAARIFQEPTE [R5A],0.342
SKAARRIFQEPTE [T3A],-0.251
SKTARRIFQEATE [P11A],-0.00913
